Assay results gathered from unrelated publications.
Every numbered part comes from another study and shows a few of its results, in no order. Changes are numbered by the printed parent chain.

Study 1 — method: protein binding microarray; form: double-stranded DNA, one strand shown; sample: in vitro; concentration: not given; relative to: not given; direction: higher = stronger binding; measurement: E-score
Target: Histone acetyltransferase KAT6A, winged helix 2, GST fusion (KAT6A, Homo sapiens, UniProt Q92794, residues 85-181)
Notes: 8-mer, flanks averaged, mean of 2 arrays, mostly near background
Residues (chain): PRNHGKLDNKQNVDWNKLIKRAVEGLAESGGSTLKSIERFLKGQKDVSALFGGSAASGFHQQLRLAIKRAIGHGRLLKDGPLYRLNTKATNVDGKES
CGTGGGAC: 0.18
AACATGCT: 0.00127
CTGGGAAA: 0.09
AAATTCTT: -0.094
CTCCTTGC: -0.073
CACCGTGC: -0.0194
AGCGCTTC: 0.0529
CTCAGAAA: 0.14
CTATTATC: -0.0679
AGGCTAGC: -0.0529
CTCTTTGA: -0.0497
CCAGCGAG: 0.129
CTAGAACC: -0.145
CGCTAGCC: -0.0662
ATGGTCGC: 0.0783
CGCGTGAC: 0.0319
CAGTTCCC: 0.163
CGTTTTTA: 0.0741
CGAATGAA: -0.0281
CTTGTCGC: 0.132
GCCGCCCC: 0.298
CATACCAC: -0.0632
AATGGCTG: 0.0825
CATGGGGC: -0.0235
ACCCCGCC: 0.158

Study 2 — method: RNA Bind-n-Seq; form: RNA; sample: in vitro; concentration: 365 nM; relative to: no-protein control; direction: higher = stronger binding; measurement: RBNS enrichment (R)
Target: RNA binding protein fox-1 homolog 2, RRM domain, GST-SBP tag (RBFOX2, Homo sapiens, UniProt O43251-10, residues 100-194)
Notes: natural RNA segment, single round, ends assumed
Constant ends, left off below: GGGAGUUCUACAGUCCGACGAUC … UGGAAUUCUCGGGUGCCAA
Target sequence (chain): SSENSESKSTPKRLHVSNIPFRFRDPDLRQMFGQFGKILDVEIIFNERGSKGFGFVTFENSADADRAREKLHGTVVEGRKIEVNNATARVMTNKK
CAUCCAUCAGUCUCCUCACUGCUCCUGUGCGCAGGGCUGUCCCUCCCACACUCCCUUCCAGGCCGUGGCCUUCGCUUCCUCAUUAGAAUCAGGAGAGUGAGGCACAGUGU: 0.355
AGGAGCGGGAGGGUUCCGCCACUCCAGUUUUCUCCUCUGCUUCUUUGCCUCCCUCAGAUAGAAAACAGCCCCCACUCCAGUCCACUCCUGACCCCUCUCCUCAAGGGAAG: 0.504
GCCAGACUGCCUCACCCUCUGCCCUAAUCAGCAGGGUGGGCCUGCCUUUUGCUAAGCGAUCUCUAUGCCUGGGAUGCCCUUUAUUCCAGGAGGCAUCAAGCCUCUAAAGA: 0.344
GGGAUUCAUAAGGAGAAAACAGCGUCUGGCAGGCAUGGCAGAAAGUGCUGUUAAGCAUUAGCUGGCUUCCUUGUUCAUUGUUCCAAGAGAUGGGUGUGGAGAGACGGCUU: 0.354
UUGUUGAGGUACCAUAUAGCCAGGGUGCUAGGUGAUGAGUGGUGUUAGCAUGUGCAAUAGGAACUACUGGUUUGCUGUGUAAAUGGAUGUCAGGAUCCAGCAAAACUACU: 21.1
AUGGGAAGGGAAAGGGGAGAAGAAAUUGACAUUUAUUUUAUUAUUUAUUUUAAAUGUUUACAUUUCUUUGUGUUGUUCCAAGCCUGAAUAGAAACAGAUAGCAUUAAAGU: 9.21
AGGUCUCCCACAGUGACAGCUCCUGGGUCCUUGUUCAGGAAAAGCCUGUGUGUUACCACUGCCUCAUCAGGAGGCUGCCAUUGGCAGUGGCUGCUGCUGGCCUCCCUGCA: 1.93
GUCUAGCACCUAGAUUACAGCCAGGAACAUUGGUUAAGAACUGUUGGAAACAAAACUAAAAGCAAACUCAACAUAUGUGAUGUUUAUGGCCCUCAGAUCCUUAGUAUUGU: 2.98
AACUCGGUUAACAAAAGCCACUGGUAACUGAAGGUAUUUAAGCUAGGGUCAUUUGAAAGCUUCAGCCUCAGAAUGUGACCUUUAGUCAGGGCUGCAGAUAAAAAUAGGCA: 1.2
CCAUUUCUAAUGUUGUCCUCACAAGAAGGCUAAUUGGUGGUGAGACAGCAGGGGAGGAGGAAGAGCUGUGGUUUGUAACUUGUUCAACUCAGGCAAUAAGCGAUUUUAGC: 0.441
GGUUUCCUCAUCUGUCAUGUCGAUGAUUAUAUAUGGAUACAUUUACAAAAAUAAAAAGCGGGAAUUUUCCCUUCGCUUGAAUAUUAUCCCUGUAUAUUGCAUGAAUGAGA: 1.31
UAGAAUUUUAGUUUAGGGAAAACUGGUUUGAUUUCUAGCUUUAUUACUAUUAGGUAUGUAAGCUUGGGCAAAUCGCUUAACCUUCAGGUCUAGCUUUCUCACAGAAUGAG: 0.399

Study 3 — method: DHFR PCA, deep sequencing; sample: yeast; together with: (+)-ABA 0.39 µM; relative to: wild-type fitted maximum; direction: higher = stronger binding; measurement: relative binding score
Target: ABI1, truncated, D143A, DHFR fusion (Arabidopsis thaliana)
Notes: methotrexate growth selection, single substitutions
Parent: PYL1, truncated, DHFR fusion (Arabidopsis thaliana); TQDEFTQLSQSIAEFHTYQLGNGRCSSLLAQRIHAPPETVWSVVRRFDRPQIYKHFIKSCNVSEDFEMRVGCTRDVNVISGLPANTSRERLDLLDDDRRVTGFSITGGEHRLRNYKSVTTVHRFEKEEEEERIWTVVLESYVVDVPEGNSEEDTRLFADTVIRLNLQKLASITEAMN
T160M: 14.4%
T101Q: -10.6%
F5M: 55.7%
V62H: 3.27%
G81M: 8.82%
V143S: -11.4%
T135I: -13.7%
R98I: 4.52%
V100M: 19.7%
Q51W: -11.3%
E151Y: 1.45%
R88A: 12.6%
D97Q: 51.8%
G108F: -10.3%
E38L: -5.67%

Study 4 — method: RNA Bind-n-Seq; form: RNA; sample: in vitro; concentration: 100 nM; relative to: input RNA pool; direction: higher = stronger binding; measurement: bound/input enrichment
Target: RING finger protein unkempt homolog, zinc fingers 1-6, SBP tag (UNK, Homo sapiens, UniProt Q9C0B0, residues 30-357)
Chain of UniProt Q9C0B0 (30-357, looked up): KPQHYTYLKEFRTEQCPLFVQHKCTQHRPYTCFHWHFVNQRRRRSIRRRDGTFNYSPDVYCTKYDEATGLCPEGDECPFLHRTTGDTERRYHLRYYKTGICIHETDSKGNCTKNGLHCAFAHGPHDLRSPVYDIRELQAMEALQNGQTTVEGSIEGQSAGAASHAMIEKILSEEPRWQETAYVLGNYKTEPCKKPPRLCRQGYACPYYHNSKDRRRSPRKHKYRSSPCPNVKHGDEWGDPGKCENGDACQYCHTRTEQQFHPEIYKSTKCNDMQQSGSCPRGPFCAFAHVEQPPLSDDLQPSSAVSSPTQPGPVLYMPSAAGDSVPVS
Notes: RNA with constant flanks, vertebrate orthologous sites, ends assumed
Constant ends, left off below: GGGAGUUCUACAGUCCGACGAUC … CAACAGAGGAUUGAGCAUCA
CAUGAUCUUGUUACUGUGAUAUUUUAAAUAUCCACAGUACUCACUUUUUCCAAAUGAUUCUAGUAAUUGCCUAGAAAUAUCUUUCUCUUACCUGUUAUUUAUCAAUUUUUCCCAGUAUUU: 1.22 ratio
CUGCUGUAUGGGCCCCGCAGAGUUGAGGUCAUGGAAGAGGAAAGUGAACAGUAAUCUCUGUAGUAUUUAUGCUUAGGUGUGAAAUAAAUGUUAUUUGUUGAUCACUUGUAUAAUCCAGAG: 0.295 ratio
CCGCAUUAGCACCCUGCCAGCCCAGCAAUCUCUCUGUGCACAGCUUCAAAUGUUAUGGUCUAGCUAGAUUUUUAUUUAAAAUAUGAAAAACUGCUUUUCCCAAGACAUUUUUUAAAGAAA: 0.478 ratio
GUGACCUGGUACAAUGUACAUUUAUGUACCAUGUUCAUCCAUGUACAUUAAACUCCUAGCCAUAGAAGUAGAAUCUGGUAUUUUUGAAAGGUUUUCAUUGCUGUGUAUUCUCACUCAUGG: 0.449 ratio
CCAGAAUUUUAACCAAGAAUCUGAAGGUAGAAAUACAGGACCAUGGUUAUCUUCUUCACUUAGAAAUAGAUGCACACCUUUGUUCUCUAGAAGGAGACGAGAGGGACGAGAUGAAUCUUC: 0.652 ratio
AUCACAGUCGCUUUUUACCACCUCAAUGAGGUAGAGUCUCUCUUGGCAUGUGGUUGUUACAAGAGCCAGUCGUACCUGACAAGUCUUUCCACGUUUCAUUUCUUUCACAUUCUUGGUCUU: 0.595 ratio
CCUUAUUUCUUUCUUCCUGACUUUCUUUUUUCUUUCGUUUCUUUUUUCUUUUUUUUUUGGUAGUUGUUGUUACCCACGCCAUUUUACGUCUCCUUCACUGAAGGGCUAGAGUUUUAACUU: 2.62 ratio
UAGUACUUAAGCCAACAACAGCUCUAAAAUGCUAUUUAUUUGUGUCUGUAAGUUUGUACAUAGUAAUACCAACCUCAUAUUGUUGCAGAUUUUUUUUUAUCAGUUUGAGUUUUGUUUUGU: 0.768 ratio
CUACAAUAAUGAAAAACCUACCAGGAAUUUUUUUAUUUUUCAUUUCCCCUUGGGCAUUCCUAGUCUUUUUUCCCCCCAGGCAGAUCAUUCUGAGUGUGCGAGUGUGUGUGCACAUGUUAC: 0.732 ratio
CAGCUGAUUCACUUAUUGGGAGAGCUGCACAUAUUGCUGUUCUUGAUUCAGAAAUAUUUUUAGAAAAAUUUUUUCUAGUGGCUGCUCUAAAAUAUUUCCAGUAGCAUAAAAGCAUUGUUA: 0.507 ratio
AAGAAAUGCUGGCUGCAAACCCUCAGGAUCGACCAGAUGCUUUUGAACUAGAACUCAGAUUAGUACAAAUUGCAUUUAAAGAUAGCAGCUGGGAAACGUGACACAUACAUUGUUCGCAGA: 0.414 ratio

Repeated from above (study 3):
V62H: 3.27%
G81M: 8.82%
V143S: -11.4%
T135I: -13.7%
R98I: 4.52%
V100M: 19.7%
Q51W: -11.3%
E151Y: 1.45%
R88A: 12.6%
